Measured values pooled from the literature.
Parts stem from different laboratories: compare values within a part only.

Sample 1
Target: Hepatocyte nuclear factor 3-alpha (Foxa1, Mus musculus, UniProt P35582, residues 1-468, full length assumed)
Method: EMSA with sequencing
Form: double-stranded DNA, one strand shown
Medium: in vitro
Tested at: 10 and 20 nM
Setting: whole designed probe, mean of two concentrations, ends assumed
Reference: negative control set to 0
Direction: higher = stronger binding
Measurement: normalised bound fraction
Residues (chain): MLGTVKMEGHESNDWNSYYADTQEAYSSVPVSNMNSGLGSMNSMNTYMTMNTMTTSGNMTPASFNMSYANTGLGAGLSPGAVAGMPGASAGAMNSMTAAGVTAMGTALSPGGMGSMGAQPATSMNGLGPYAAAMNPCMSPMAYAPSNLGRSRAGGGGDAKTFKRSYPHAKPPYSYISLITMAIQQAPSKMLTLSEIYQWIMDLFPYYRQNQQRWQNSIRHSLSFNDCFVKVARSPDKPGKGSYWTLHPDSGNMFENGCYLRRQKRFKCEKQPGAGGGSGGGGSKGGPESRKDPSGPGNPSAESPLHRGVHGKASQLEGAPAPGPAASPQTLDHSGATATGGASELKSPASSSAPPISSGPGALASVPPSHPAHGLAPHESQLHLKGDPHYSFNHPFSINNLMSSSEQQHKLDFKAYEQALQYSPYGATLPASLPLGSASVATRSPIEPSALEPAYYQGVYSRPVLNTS
Strand = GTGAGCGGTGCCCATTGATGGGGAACGGACACAGCCAGAGGCCATGAGTGCTCAGGAGTGCCATAAACTGTGATTTTGAGACTGATAAGGCCCTGGGTGTGTCAGGCTAAATAGCTTGTTGTTTGCCTTTTTATATTTGAGGCCTATAAAAAAATAGTGAGAAAATAGCAAGATGCCCAGGAGACAGGTGATCTGATTCAGCCAGGGGGTGGGAGGTGGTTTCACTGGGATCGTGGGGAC; value = 0.0783 ratio
Strand = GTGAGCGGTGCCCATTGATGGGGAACCCATCTCAGCTGAGGGTACTATCATCCACCCTGTGGCCACATCCAGGAATGTGTGTATCACCTGGGCTCTGAGGAAGTCAACTGCTCTTCTAAGTCAACAGAATGTCGGGTCTGTTCTAAAAGTCTCATCTGACAAGGAGATCTTTAAGGCTTTACTCCCTTAAAGGCTTTACTCCCATCATGATGGGATAACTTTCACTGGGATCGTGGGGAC; value = 0.176 ratio
Strand = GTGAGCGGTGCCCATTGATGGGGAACCTTTTAGTCCTTTTGTTTTACAGTCTCACAGTTAATTGTTCTTAGTTGATTTATCTTTTCTTACTCTTTCATAAGACTTTTCTTTTATCTCAAGATTACTTTGTTCTTATATTACTAAATTACTTAGTTTCTTCTTATCACCTTAGGCTTTGTTTTAATTATTTCCTTTTTATGTTATCTATTTTTCATTTTATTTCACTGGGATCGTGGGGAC; value = 0.0282 ratio
Strand = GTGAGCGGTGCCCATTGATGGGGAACCTCTCTGGTGGTTCTAGCTCATACACGGCTAATGATTTATGAGGCAGTGTTGTGTGGCACTACCTAGCTGTTACTTTCTTGCCTACTCTGCTGAGTAATCTGGGGCCCTGTCTTAGCTGGGTTTGAAGTCTGTTCCCTAGGGAAGGGCACTGTGTCCCCGAGTCACCAGAGAGGAGGGGCAAGGGCATCTCCTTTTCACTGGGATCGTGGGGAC; value = -0.0951 ratio
Strand = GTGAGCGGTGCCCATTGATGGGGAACCTGAGGTCAGGAGGCCGGCATGCGTGACCCTTTGTCTCTGGGAGTCCAGATTTCCTAATGCAGGGCTCTTTCTAACACAGAAAGCAAGGTTGAGTAAATACATGAGCTCATGCTCTGTTGGCACGTAGGGCATTGCTGTGTTGATTCACTCATGGAAACAGGAATGCTTCTGTACACCCTGTGCTTGTAACGTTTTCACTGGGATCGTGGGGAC; value = 0.26 ratio
Strand = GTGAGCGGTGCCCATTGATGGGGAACGTGTGTGCGCGCGCGTGTGTGTGTGTTTTCTTAAGCCGGGCTATTCAAACCCTGCTGCAATTCTCCGGTAAACAATGTTACATGGGGCATAATGCAAATAAACGGATTGCAAACGGCAATGATTCATCACTTTGCAGCCGGCCCGGTGGAGCAGCCAGTGCCGGATTTCTCCCTTTTTTTGCAGATCTGCAGATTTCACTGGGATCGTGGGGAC; value = 0.432 ratio
Strand = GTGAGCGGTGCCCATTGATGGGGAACTGTTCCAGCAGGTTGATGGAGCATAGGGGCTTCAAAGGAACCGGTGATGCAGTCATGCTGTGGCTGGAGTTTACGAAAGGCTGACTCACCAAAGGTCAACAGAGACATTTACACAAACATCCTGACCCCAAGTCCAGTGCTCTTTCTAATCTATAACAGGGTTCTTCCTTTTTTTCTTTTTCTTTCACTTTTTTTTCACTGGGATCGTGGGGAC; value = 0.0971 ratio
Strand = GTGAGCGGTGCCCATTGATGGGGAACCTTCCCTAGCCCTGACTTCCCAAGCCTTAGTCATCACCCTCTCTCCCACCCAGGGCTCAGCACAGTACCTGGAACAGTCAAGCCCTCAATAAAAGATTACTGAGTGCATTAAAAAAAAAAAAAAGATTTTAATGAGTCATGCTTTAACTGAAGATTTTAGTGTAGTCAGTCATTGGGCCTTGGATGCCAAAGGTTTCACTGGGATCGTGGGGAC; value = -0.0802 ratio

Sample 2
Target: Fragile X messenger ribonucleoprotein 1, C-terminal low-complexity region (Fmr1, Mus musculus, UniProt P35922)
Method: RNA Bind-n-Seq
Form: RNA
Medium: in vitro
Tested at: 200 nM
Setting: whole 134-nt RNA, ends assumed
Added: 150 mM KCl
Reference: input library
Direction: higher = stronger binding
Measurement: log2 enrichment
Strand = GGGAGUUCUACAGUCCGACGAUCAGGCUAUGGAGGCUAUGAUGAUUACAAUGGCUAUAAUGAUGGCUAUGGAUUUGGGUCAGAUAGAUUUGGAAGAGGUAAGGUAAGAAUUGAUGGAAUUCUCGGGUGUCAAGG; value = 0.301
Strand = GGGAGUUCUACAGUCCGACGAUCAGUCCUGUGCUACACAUCGUAUGUACCGAAUCAAAUUUUUAAAUUUAAACCCCCAAAAAAGUAUUAUGUUACGCCGUUCGGAUCUGCACUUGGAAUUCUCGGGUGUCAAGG; value = -0.0181
Strand = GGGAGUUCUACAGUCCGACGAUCCUCAAGUCCUGUGCUACACAUCGUAUGUACCGAAUCGGGUGGGUGGGGUGGGGAAAGUAUUAUGUUACGCCGUUCGGAUCUGCACUUCCAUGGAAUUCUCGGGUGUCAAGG; value = 0.608
Strand = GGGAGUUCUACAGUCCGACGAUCCCUGUGCUACACAUCGUAUGUACCGAAUCGGGGAAAAAGGGGAAAAAGGGGAAAAAGGGGAAAGUAUUAUGUUACGCCGUUCGGAUCUGCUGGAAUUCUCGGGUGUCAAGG; value = 0.156
Strand = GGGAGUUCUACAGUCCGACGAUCAGUCCUGUGCUACACAUCGUAUGUACCGAAUCGGGGAGGGGAAAAAAAGGGGAGGGGAAAGUAUUAUGUUACGCCGUUCGGAUCUGCACUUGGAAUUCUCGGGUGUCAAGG; value = 0.72
Strand = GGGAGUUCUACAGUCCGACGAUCCAAGUCCUGUGCUACACAUCGUAUGUACCGAAUCGGGGCCCGGCCCGGGCCCGGGAAAGUAUUAUGUUACGCCGUUCGGAUCUGCACUUCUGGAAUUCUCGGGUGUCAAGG; value = -0.801
Strand = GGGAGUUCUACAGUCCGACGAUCCUGUGCUACACAUCGUAUGUACCGAAUCGGCCCCCCCGGGGCCCCCCCGGGGCCCCCCCGGGAAAGUAUUAUGUUACGCCGUUCGGAUCUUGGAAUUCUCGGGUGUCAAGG; value = -1.69
Strand = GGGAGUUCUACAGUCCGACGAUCGCAGGAAGUAAAAACAAAUGGAAAUGCUUCGGAUAGUGGCAGGGGUGGGGGAUGCUAAGGAAAGGGUGGGAUGGGAGUGGGUAAAGAGUUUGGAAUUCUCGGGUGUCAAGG; value = 0.0368
Strand = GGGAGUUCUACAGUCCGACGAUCCCUGUGCUACACAUCGUAUGUACCGAAUCGGGGUUUGGGGUUUUUGGGGAAAAAAAGGGGAAAGUAUUAUGUUACGCCGUUCGGAUCUGCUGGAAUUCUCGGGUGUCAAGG; value = 0.427
Strand = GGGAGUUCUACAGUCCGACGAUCCACAGACAACACGCACCCACACAGACACAGAGGGAAGGGGAUGGGAUGGGGACAGGGUGCACAGCAGGGCGGGGUAGGACCCCAGCCCCUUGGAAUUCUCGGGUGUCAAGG; value = 1.13

Sample 3
Target: Histone acetyltransferase KAT6A, both winged helices, GST fusion (KAT6A, Homo sapiens, UniProt Q92794, residues 1-181)
Method: protein binding microarray
Form: double-stranded DNA, one strand shown
Medium: in vitro
Tested at: not given
Setting: 8-mer, flanks averaged, mean of 2 arrays, mostly near background
Reference: not given
Direction: higher = stronger binding
Measurement: E-score
Target sequence (chain): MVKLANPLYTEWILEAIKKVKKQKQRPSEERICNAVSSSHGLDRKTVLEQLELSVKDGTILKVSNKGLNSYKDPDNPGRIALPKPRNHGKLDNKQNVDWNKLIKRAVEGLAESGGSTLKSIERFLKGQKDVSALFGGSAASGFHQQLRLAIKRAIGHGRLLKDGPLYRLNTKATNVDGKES
Strand = GGATGCCC; value = -0.00428
Strand = AATAGGGA; value = -0.183
Strand = ATTTGACA; value = -0.00441
Strand = CCCCCCTC; value = -0.341
Strand = CCCAGCCA; value = -0.237
Strand = ACCAATAC; value = -0.00888
Strand = AAACGGGA; value = 0.225
Strand = AGGTGCTC; value = -0.171
Strand = CTGGGTCC; value = -0.0529
Strand = AGCTTGTC; value = 0.00651
Strand = AACCCGCT; value = 0.237
Strand = CGAAGCAA; value = 0.0299
Strand = CACGTCCG; value = 0.0851
Strand = TCACTAAA; value = -0.0769
Strand = CACGTAAC; value = 0.0718
Strand = GTTCAAGA; value = 0.0171
Strand = AAACCCTA; value = -0.278
Strand = TACATGCA; value = 0.00197
Strand = CACCGATA; value = -0.0636
Strand = ACAAACCC; value = -0.0367
Strand = AACTGTGG; value = -0.0753
Strand = AATCTAGC; value = -0.112
Strand = AGCCCTGG; value = -0.24
Strand = ATCGACGA; value = 0.0484
Strand = CAGGGTTC; value = -0.0653

Sample 4
Target: Interferon regulatory factor 5, full length, phosphomimetic (IRF5, Homo sapiens, UniProt Q13568-2, residues 1-514, S451D/S453D/S456D/S462D)
Method: protein-binding microarray
Form: double-stranded DNA, one strand shown
Medium: in vitro
Tested at: 940 nM top
Setting: 60-bp whole probe
Added: salmon DNA 0.4 mg/ml
Reference: random background probes
Direction: higher = stronger binding
Measurement: fitted relative affinity
Shared flanks, not repeated: GCCTAGCAC … GTCTTGATTCGCTTGACGCTGCTG
Strand = TCATTTTGCCCTATTTAACTGTGCTAG; value = 1.49 z-score
Strand = TTATGTATCGACTATCGGTTAGTGCTA; value = 2.85 z-score
Strand = GATGGTTTCGGTCTCGGGACGTGCTAG; value = 14.6 z-score
Strand = TCACTTTTTAAGATCTGACTGTGCTAG; value = 0.283 z-score
Strand = CAGCGCGCAGCTGCCAGAACGTGCTAG; value = -0.898 z-score
Strand = TACGGTATCCTTATCCTGACGTGCTAG; value = 0.351 z-score
Strand = GACGGTCTCGGTCTCGGTACGTGCTAG; value = 4.88 z-score
Strand = GACGATATCGGTTTCGAGACGTGCTAG; value = 4.01 z-score
Strand = GACGGTCTGGGACTGGGGACGTGCTAG; value = -0.343 z-score
Strand = TTAGGACTGGGACTGGGATAGTGCTAG; value = -0.279 z-score
Strand = TCATGTCTGGGTATTTTACTGTGCTAG; value = -0.0317 z-score
Strand = TTAGGCCTCCTACTGCTTTAGTGCTAG; value = -0.323 z-score
Strand = TTAGGTTTCGGTTCCGGTCAGTGCTAG; value = 14.8 z-score
Strand = TTAGGTATCGGGTTTCAGTTAGTGCTA; value = 6.17 z-score
Strand = TTGGGTATCGACTTTCGGTTAGTGCTA; value = 5.69 z-score
Strand = AGATATTCAGGTATATAAAGGTGCTAG; value = -0.0092 z-score
Strand = CCTACCGCCCTTACCGCCGCGTGCTAG; value = 0.362 z-score

For quick reference, copied from above (sample 2):
Strand = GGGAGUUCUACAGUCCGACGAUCAGUCCUGUGCUACACAUCGUAUGUACCGAAUCAAAUUUUUAAAUUUAAACCCCCAAAAAAGUAUUAUGUUACGCCGUUCGGAUCUGCACUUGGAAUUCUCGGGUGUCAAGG; value = -0.0181
Strand = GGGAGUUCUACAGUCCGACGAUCCUCAAGUCCUGUGCUACACAUCGUAUGUACCGAAUCGGGUGGGUGGGGUGGGGAAAGUAUUAUGUUACGCCGUUCGGAUCUGCACUUCCAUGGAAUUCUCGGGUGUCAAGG; value = 0.608
Strand = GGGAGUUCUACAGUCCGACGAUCCCUGUGCUACACAUCGUAUGUACCGAAUCGGGGAAAAAGGGGAAAAAGGGGAAAAAGGGGAAAGUAUUAUGUUACGCCGUUCGGAUCUGCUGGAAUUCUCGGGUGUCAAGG; value = 0.156
Strand = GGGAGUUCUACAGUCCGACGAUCAGUCCUGUGCUACACAUCGUAUGUACCGAAUCGGGGAGGGGAAAAAAAGGGGAGGGGAAAGUAUUAUGUUACGCCGUUCGGAUCUGCACUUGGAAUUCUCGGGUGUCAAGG; value = 0.72
